Published values from different studies.
Protocols differ between the studies behind these lines. Numbers after ± are the reported error.

SMILES = CC[C@H](C)[C@@H]1NC(=O)[C@H](CCCNC(=N)N)NC(=O)[C@@H]2CCCN2C(=O)[C@H](Cc2ccccc2)NC(=O)[C@H]([C@@H](C)O)NC(=O)CNC(=O)[C@H](CC(C)C)NC(=O)[C@@H]2CCCN2C(=O)[C@H]([C@@H](C)O)NC(=O)[C@H](Cc2c[nH]c3ccccc23)NC(=O)[C@H](Cc2ccc(O)cc2)NC(=O)[C@H]([C@@H](C)CC)NC(=O)[C@H]([C@@H](C)O)NC(=O)[C@H]([C@@H](C)O)NC(=O)[C@@H](Cc2ccc(O)cc2)NC(=O)CSC[C@@H](C(N)=O)NC(=O)[C@H](CCCNC(=N)N)NC1=O; target = Vacuolar protein sorting-associated protein 29 (VPS29, Homo sapiens, UniProt Q9UBQ0); test = binding, ITC; setting = 25 °C, protein alone; measurement = -TΔS; result = 1.7 ± 0.1 kcal/mol
SMILES = Nc1ncnc2c1ncn2[C@@H]1O[C@H](CSCC[C@H](N)C(=O)O)[C@@H](O)[C@H]1O; target = O-methyltransferase (Sorghum bicolor, UniProt A0A1B6PFV1); test = isothermal titration calorimetry; setting = concentration not given, apo protein; measurement = ΔH of binding; result = -3.53 ± 0.622 kcal/mol
SMILES = NCC[C@H](O)C(=O)N[C@@H]1C[C@H](N)[C@@H](O[C@H]2O[C@H](CN)[C@@H](O)[C@H](O)[C@H]2O)[C@H](O)[C@H]1O[C@H]1O[C@H](CO)[C@@H](O)[C@H](N)[C@H]1O; target = Albumin (ALB, Bos taurus, UniProt P02769); test = binding, tryptophan fluorescence quenching; setting = pH 7.4, 298 K; measurement = ΔG°; result = -3.65 kcal/mol
SMILES = CC[C@H](C)[C@H](NC(=O)[C@H](Cc1ccccc1)NC(=O)[C@H](CCC(=O)O)NC(=O)[C@H](CCCNC(=N)N)NC(=O)[C@H](C)NC(=O)[C@H](C)NC(=O)[C@H](CCC(N)=O)NC(=O)[C@H](CCC(=O)O)NC(=O)[C@H](CCC(=O)O)NC(=O)[C@H](CC(C)C)NC(=O)[C@H](Cc1ccc(O)cc1)NC(=O)[C@H](CO)NC(=O)[C@H](CO)NC(=O)[C@@H](NC(=O)[C@H](CC(=O)O)NC(=O)[C@H](CO)NC(=O)[C@@H](NC(=O)[C@H](Cc1ccccc1)NC(=O)[C@@H](NC(=O)CNC(=O)[C@H](CCC(=O)O)NC(=O)[C@H](C)NC(=O)CCc1cnc[nH]1)[C@@H](C)O)[C@@H](C)O)C(C)C)C(=O)N[C@@H](C)C(=O)N[C@@H](Cc1c[nH]c2ccccc12)C(=O)N[C@@H](CC(C)C)C(=O)N[C@H](C(=O)N[C@@H](CCCCNc1c(NCCCCCN(O)C(=O)CCC(=O)NCCCCCN(O)C(=O)CCC(=O)NCCCCCN(O)C(C)=O)c(=O)c1=O)C(=O)NCC(=O)N[C@@H](CCCNC(=N)N)C(=O)N[C@@H](CCCCNC(=O)COCCOCCNC(=O)COCCOCCNC(=O)CC[C@H](NC(=O)CCCCCCCCCCCCCCCCC(=O)O)C(=O)O)C(=O)NCC(=O)NCC(=O)N[C@@H](CO)C(=O)N[C@@H](CCCCNc1c(NCCCCCN(O)C(=O)CCC(=O)NCCCCCN(O)C(=O)CCC(=O)NCCCCCN(O)C(C)=O)c(=O)c1=O)C(=O)O)C(C)C; target = GLP1R (Homo sapiens, UniProt P43220); test = agonist, CRE luciferase reporter; system = BHK cells; setting = metal-free DFO conjugate, added: 1% HSA; scale = reference: parent peptide; measurement = fold potency loss; result = 4
SMILES = CCN1CCC[C@H]1CNC(=O)c1c(O)c(Cl)cc(Cl)c1OC; target = Adhesion G-protein coupled receptor D1 (ADGRD1, Homo sapiens, UniProt Q6QNK2); test = β-arrestin recruitment, TANGO luminescence, measured: GPR133; setting = concentration not given; scale = reference: basal luminescence; measurement = log2 fold change; result = 0.586
SMILES = C[C@@H]1CCN(C(=O)CCl)[C@@H](C(N)=O)C1; target = human NEDD9 full length; test = LC-MS/MS peptide mapping; setting = 50 µM, 18 h; measurement = cysteine occupancy; result = 24.3%
SMILES = CN1CCN(c2ccc3nc(-c4c(N)c5c(F)cccc5[nH]c4=O)[nH]c3c2)CC1; target = NanoBiT HiBiT/LgBiT luciferase; test = inhibitor, HiBiT luminescence counterscreen; system = conditioned medium only; setting = 5 µM, 24 h; scale = reference: vehicle; measurement = luminescence signal reduction; result = 2.43%
SMILES = COc1cc(Nc2ncc3c(n2)-c2ccc(Cl)cc2C(c2c(F)cccc2OC)=NC3)ccc1C(=O)O; target = ADRBK2; test = kinase activity; setting = 1 µM; measurement = remaining activity; result = 105%
SMILES = [O-][S+]1CCCCS1 (stereo not shown); target = SOD1 (Homo sapiens, UniProt P00441, G94A); test = intact protein LC-MS; system = SOD1 G93A transgenic mice, whole blood; setting = intravenous, 10 mg/kg, 72 h, mean of two mice; measurement = target engagement; result = 15.9%
SMILES = c1ccc(C(NCc2cccnc2)(c2ccccc2)c2ccccc2)cc1; target = KCNQ1 (Homo sapiens, UniProt P51787); test = ion current, inhibitor, whole-cell patch clamp; system = tsA201; setting = peak current, no correction; measurement = Hill coefficient; result = 0.7
